{"data": "Measured values gathered from unrelated publications", "B1": "enzyme (Oryza sativa, UniProt A0A7G1K8F5); chain MADESWRAPAIVQELAAAGVEEPPSRYLLREKDRSDVKLVAAELPEPLPVVDLSRLDGAEEATKLRVALQNWGFFLLTNHGVEASLMDSVMNLSREFFNQPIERKQKFSNLIDGKNFQIQGYGTDRVVTQDQILDWSDRLHLRVEPKEEQDLAFWPDHPESFRDVLNKYASGTKRIRDDIIQAMAKLLELDEDYFLDRLNEAPAFARFNYYPPCPRPDLVFGIRPHSDGTLLTILLVDKDVSGLQVQRDGKWSNVEATPHTLLINLGDTMEVMCNGIFRSPVHRVVTNAEKERISLAMLYSVNDEKDIEPAAGLLDENRPARYRKVSVEEFRAGIFGKFSRGERYIDSLRI", "B2": "enzyme Y105A (Streptomyces parvus, UniProt A0A7K3RVR3); chain MYVPEQYRPRDASWTLELIRSNPLALLVTNGPQHPWATHVPVLFAEEPDGPEGPDGLDATGDDLVGRRLLGHLNLMNPHWEALAGAGHALLVFQGPGSYVSPTVAETAPAAPTWDFTSVHVHGALRLIDDPDDLRKIVQATVRAYEREVGTDWDMSESLEYFERLLPGVRGFEIKIESVDSMFKLSQEQLPETVTKVIDSFRRSDGGRRQELATMIERAASD", "B3": "enzyme T113A (Streptomyces parvus, UniProt A0A7K3RVR3); chain MYVPEQYRPRDASWTLELIRSNPLALLVTNGPQHPWATHVPVLFAEEPDGPEGPDGLDATGDDLVGRRLLGHLNLMNPHWEALAGAGHALLVFQGPGSYVSPTVYETAPAAPAWDFTSVHVHGALRLIDDPDDLRKIVQATVRAYEREVGTDWDMSESLEYFERLLPGVRGFEIKIESVDSMFKLSQEQLPETVTKVIDSFRRSDGGRRQELATMIERAASD", "note": "Compare with care: the assays were run in different laboratories. ± marks the error that the study gave."}
{"Molecule": "ORF34 V50A (Kaposi's sarcoma-associated herpesvirus)", "target or system": "ORF66", "test": "pull-down", "scale": "baseline: wild-type ORF34, higher = more binding", "quantity": "relative binding", "value": 1.11}
{"Molecule": "AAUUUUUUAGGGAAGAUCUGGCCUUCCUACAAGGGAAGGCCAGGGAAUUUUCUUC (ssRNA (HIV-1); stem-loop)", "target or system": "SHFL 1-291 T253A (Homo sapiens, UniProt Q9NUL5)", "test": "BLI", "test system": "folded RNA", "scale": "baseline: WT, lower = weaker affinity", "quantity": "relative binding", "value": "> 4 fold"}
{"Molecule": "ORF34 Y215A (Kaposi's sarcoma-associated herpesvirus)", "target or system": "ORF66", "test": "pull-down", "test system": "293T", "scale": "baseline: wild-type ORF34, higher = more prey pulled down", "quantity": "relative binding", "value": 0.16}
{"Molecule": "CC[C@H](C)[C@@H]([C@@H](CC(=O)N1CCC[C@H]1[C@H](OC)[C@@H](C)C(=O)N[C@H](C)[C@@H](O)c1ccccc1)OC)N(C)C(=O)[C@@H](NC(=O)[C@H](C(C)C)N(C)C(=O)OCc1ccc(NC(=O)[C@H](CCCNC(N)=O)NC(=O)[C@@H](NC(=O)CCCCCN2C(=O)CC(SC[C@H](NC(=O)[C@H](CC(=O)O)NC(=O)[C@H](Cc3ccc(O)cc3)NC(=O)[C@H](Cc3c[nH]c4ccccc34)NC(=O)[C@@H](N)CCCNC(=N)N)C(=O)O)C2=O)C(C)C)cc1)C(C)C (some centres unmarked)", "test system": "C57BL/6 mouse, healthy, spleen", "setting": "intraperitoneal, 2.5 mg/kg, 0.167 h", "quantity": "concentration", "value": "not detected"}
{"Molecule": "B1 (enzyme)", "target or system": "CS(=O)(=O)c1ccc(C(=O)C2C(=O)CCCC2=O)c([N+](=O)[O-])c1", "test": "steady-state kinetics", "setting": "pH 7.4, 30 °C", "quantity": "kcat", "value": "0.0251 ± 0.0008 s⁻¹"}
{"Molecule": "B2 (enzyme Y105A)", "target or system": "N[C@@H](CCCNO)C(=O)O", "test": "steady-state kinetics", "setting": "pH 8, 25 °C, added: heme", "quantity": "kcat", "value": "0.948 s⁻¹"}
{"Molecule": "CCCCCCCCCCCCCCC(=O)N[C@@H](CCCCNC(=O)CN1CCN(CC(=O)O)CCN(CC(=O)O)CCN(CC(=O)O)CC1)C(=O)NCCCC[C@@H]1NC(=O)[C@@H](Cc2ccccc2)NC(=O)[C@H](CC(=O)O)NC(=O)CNC(=O)[C@H](CCCNC(=N)N)NC1=O [actinium-225 labelled]", "test system": "BxPC-3 xenograft mice, blood", "setting": "dose not given, end of study", "quantity": "BUN and creatinine levels", "value": "no effect"}
{"Molecule": "CC[C@H](C)[C@H](NC(=O)[C@H](CO)NC(=O)[C@H](Cc1ccc(O)cc1)NC(=O)[C@H](Cc1ccc(O)cc1)NC(=O)[C@H](CC(N)=O)NC(=O)CNC(=O)[C@H](CO)NC(=O)[C@H](Cc1ccc(O)cc1)NC(=O)[C@H](CO)NC(=O)[C@H](CO)NC(=O)[C@H](CC(N)=O)NC(=O)COCCOCCNC(=O)CN1CCN(CC(=O)O)CCN(CC(=O)O)CCN(CC(=O)O)CC1)C(=O)N[C@@H](CC(C)C)C(N)=O [copper-64 labelled]", "test": "dynamic PET", "test system": "KPC mouse, pancreatic cancer model, tumor", "setting": "intravenous, 22.5 min, 49 days after tamoxifen", "quantity": "tumour uptake", "value": "7.05 %ID/mL"}
{"Molecule": "CCCC[C@H](NC(=O)CN1CCC(NC(=O)CN2CCN(CC(N)=O)CCN(CC(N)=O)CCN(CC(N)=O)CC2)CC1)C(=O)N[C@H]1CC(=O)NCCCC[C@@H](C(N)=O)NC(=O)[C@H](Cc2c[nH]c3ccccc23)NC(=O)[C@H](CCCNC(=N)N)NC(=O)[C@@H](Cc2ccccc2)NC(=O)[C@H](Cc2c[nH]cn2)NC1=O [lead-203 labelled]", "test system": "male C57BL/6J mice B16-F10 tumour, bone", "setting": "intravenous, 20 pmol, 2 h", "quantity": "tissue uptake", "value": "1.54 ± 0.3 %ID/g"}
{"Molecule": "B3 (enzyme T113A)", "target or system": "N[C@@H](CCCNO)C(=O)O", "test": "steady-state kinetics", "setting": "pH 8, 25 °C, added: heme", "quantity": "kcat", "value": "0.101 s⁻¹"}
{"Molecule": "CC[C@H](C)[C@H](NC(=O)[C@H](CCC(N)=O)NC(=O)[C@H](Cc1c[nH]cn1)NC(=O)[C@@H](NC(=O)[C@H](Cc1c[nH]c2ccccc12)NC(=O)[C@H](CO)NC(=O)[C@H](CCC(N)=O)NC(=O)[C@@H]1CCCN1C(=O)[C@H](Cc1c[nH]cn1)NC(=O)[C@@H](NC(=O)[C@H](CCCNC(=N)N)NC(=O)[C@H](CC(C)C)NC(=O)[C@H](Cc1ccc(O)cc1)NC(=O)[C@H](CCCNC(=N)N)NC(=O)[C@@H](NC(=O)[C@H](CS)NC(=O)[C@H](CCCCN)NC(=O)[C@H](Cc1ccccc1)NC(=O)[C@@H](NC(=O)[C@H](CCCCN)NC(=O)[C@H]1CC[C@H](CN)CC1)[C@@H](C)O)[C@@H](C)O)[C@@H](C)CC)C(C)C)C(=O)O", "target or system": "rat cortical neurons", "test": "MTT", "setting": "1.0 mg/ml, 24 h, 37 °C", "quantity": "viability", "value": "5 to 10%"}
{"note": "Excerpt of the above:"}
{"Molecule": "ORF34 Y215A (Kaposi's sarcoma-associated herpesvirus)", "target or system": "ORF66", "test": "pull-down", "test system": "293T", "scale": "baseline: wild-type ORF34, higher = more prey pulled down", "quantity": "relative binding", "value": 0.16}
